# Measurements pooled from the literature.
# Lines come from different studies, so protocols differ. Values joined by “and” are separate records of one study, mostly repeats; a detail may differ.
# Target: Mitogen-activated protein kinase 9 (MAPK9, Homo sapiens, UniProt P45984)
# Chain of UniProt P45984 (whole entry, looked up): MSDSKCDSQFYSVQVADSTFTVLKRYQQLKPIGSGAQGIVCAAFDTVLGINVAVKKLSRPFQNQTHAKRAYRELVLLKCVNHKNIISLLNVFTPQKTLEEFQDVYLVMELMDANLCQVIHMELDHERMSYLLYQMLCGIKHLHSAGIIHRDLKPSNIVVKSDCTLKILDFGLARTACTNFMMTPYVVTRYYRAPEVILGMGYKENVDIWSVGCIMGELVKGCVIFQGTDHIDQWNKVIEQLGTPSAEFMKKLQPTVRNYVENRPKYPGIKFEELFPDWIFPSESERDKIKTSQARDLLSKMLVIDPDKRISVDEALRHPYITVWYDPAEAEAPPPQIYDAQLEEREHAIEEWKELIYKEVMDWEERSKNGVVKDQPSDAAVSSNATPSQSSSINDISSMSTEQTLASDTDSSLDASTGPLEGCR
SMILES,assay,conditions,scale,remaining activity
Cc1ccc(C)c(-c2ccc3nc(NC(=O)C4CCCCC4)nn3c2)c1,"enzyme activity, Dundee kinase panel",10 µM,,94%
O=C=[N][Ru-4]123([n]4c5ccc(O)cc5c5c6c(c7cc(F)c[n+]1c7c54)C(=O)NC6=O)[S+]1CC[S+]2CC[S+]3CC1 (stereo not drawn),enzyme activity,"100 nM, human enzyme, together with: 10 µM ATP",relative to: untreated,98%
COCC12C(=O)NC3C4(C(OC)CC1O)C1CC5(O)C(OC)C(O)C(OC(C)=O)(C1C5OC(=O)c1ccccc1)C3(O)C(OC)C24 (stereo not drawn),"kinase activity, inhibitor, ProQinase kinase profiling",25 µM,relative to: control,116% and 118%
COc1c(OCCCN2CCOCC2)ccc2c1N=C(NC(=O)c1cnc(N)nc1)N1CCN=C21,"kinase activity, inhibitor",1 µM,relative to: untreated control,110%
C#CCOC(=O)[C@@]1(C)C=C(C(=O)Nc2cccc(C(=O)Nc3ccc(C)c(Nc4nccc(-c5cccnc5)n4)c3)c2)C(=O)CC1,"enzyme activity, inhibitor","0.0007527 µM, unit not given",relative to: vehicle,1
COc1ccc(NC(=O)Nc2ccc3c(c2)C(=O)N(C(C)CO)CC(C)C(CN(C)Cc2ccc4c(c2)OCO4)O3)cc1 (stereo not drawn),"kinase activity, KinaseProfiler","0.03 µM, species human",relative to: control,99%
Nc1nc(Nc2ccccc2)sc1C(=O)c1ccccc1,"enzyme activity, inhibitor",10 µM,,48%
Cc1cccc(-c2ccc3nc(NC(=O)C4CCCO4)nn3c2)c1 (stereo not drawn),"enzyme activity, Dundee kinase panel",10 µM,,83%
Cc1cc(NC(=O)c2cccc(N)c2)ccc1Nc1nccc(-c2cccnc2)n1,"enzyme activity, inhibitor","0.02032 µM, unit not given",relative to: vehicle,1.01

# Repeated from above:
SMILES,assay,conditions,scale,remaining activity
COCC12C(=O)NC3C4(C(OC)CC1O)C1CC5(O)C(OC)C(O)C(OC(C)=O)(C1C5OC(=O)c1ccccc1)C3(O)C(OC)C24 (stereo not drawn),"kinase activity, inhibitor, ProQinase kinase profiling",25 µM,relative to: control,116% and 118%
